# Published values from different studies.
# Protocols differ between the studies behind these lines. Several values in a cell are separate wells, animals, samples, runs or records.
# Target: Ephrin type-A receptor 4 (EPHA4, Homo sapiens, UniProt P54764)
SMILES,test,setting,how to read,endpoint,result
Cc1cccc(O[C@H]2CCC[C@@H](C(C)CNCc3ccncc3)C2)c1 (relative stereo),cell-free assay,1 µM,,inhibition,-1%
C=CC(=O)N1Cc2nc(-c3cc(-c4cc(Cl)cnc4Cl)c(F)cc3F)n(-c3ccncn3)c2C1,cell-free assay,1 µM,,inhibition,-5.9%
COc1cc(Nc2nc(C)cc(-c3cnn4nc(OC)ccc34)n2)cc(C(F)(F)F)c1,inhibitor,1 µM,relative to: control,remaining activity,100%
CNC(=O)C1CCN(c2cc(C)c(F)cc2NC(=O)c2ccc(-c3cc(O)ccc3C)c(C)c2)CC1,"binding, competition with immobilised ligand",1 µM,,remaining binding,0%
CN1CCN(Cc2ccc(-c3ccc(CO[C@H]4CCC[C@@H]4NC(=O)c4cc(-c5cnn(C)c5)cnc4N)cc3)cc2)CC1,"enzyme activity, inhibitor",0.1 µM,,inhibition,11%
C=CC(=O)N1CCc2ccc(-n3c(=O)ccc4cnc5ccc(-c6cnn(C)c6)cc5c43)cc21,KINOMEscan,1 µM,relative to: DMSO control,remaining binding,92%
C=CC(=O)Nc1cccc(-c2cnc3[nH]cc(C(=O)NC(C)(C)C)c3n2)c1,"enzyme activity, inhibitor",0.1 µM,,inhibition,2%
Cc1cnc2nc1Nc1cccc(c1)COC/C=C/COCc1cc(ccc1OCCN1CCOCC1)N2,binding,0.1 µM,,remaining binding,98%
CN1CC[C@@H](COc2cnc(C#N)cc2-c2ccn3nc(NC(=O)C4CC4)cc3c2)C1,"enzyme activity, inhibitor",1 µM,,inhibition,5%
COc1c(Cl)cccc1Nc1c(-c2ccncc2C#C[C@@]2(C)CCCN2C(=O)/C=C/CN(C)C)[nH]c2c1C(=O)NCC2,"cell-free assay, competition with immobilised ligand",3 µM,,remaining binding,82%
O=C=[N][Ru-4]123([n]4c5ccc(O)cc5c5c6c(c7cc(F)c[n+]1c7c54)C(=O)NC6=O)[S+]1CC[S+]2CC[S+]3CC1 (stereo not shown),enzyme activity,"100 nM, human enzyme, added: 10 µM ATP",relative to: untreated,remaining activity,107%
NC(=O)C[C@H]1CCc2sc3ncnc(O[C@H]4CC[C@H](N5CCOCC5)CC4)c3c21,"enzyme activity, inhibitor",10 µM,,inhibition,15%
CNC(=O)C[C@H](Cc1ccc(C#N)cc1)NC(=O)c1cc(-c2ccc(CN[C@H](C)c3ccc(C)cc3)o2)ccc1Cl,"enzyme activity, inhibitor",1 µM,,activity vs control,109%
COCC12C(=O)NC3C4(C(OC)CC1O)C1CC5(O)C(OC)C(O)C(OC(C)=O)(C1C5OC(=O)c1ccccc1)C3(O)C(OC)C24 (stereo not shown),"kinase activity, inhibitor, ProQinase kinase profiling",25 µM,relative to: control,remaining activity,92% and 103%
CCn1cc(C(=O)O)c(=O)c2c(N)c(F)c(NC3CCCCC3)cc21,kinase activity,"0.1 µM, added: ATP at Km",,inhibition,14%
CC(C)=CC1OC(C)(C)C2C=C3C(=O)C(Cl)=CC(O)C3C3C(O)C4OC4C(=O)C132 (stereo not shown),"cell-free assay, competition with immobilised ligand",10 µM,,remaining binding,90%

# For quick reference, copied from above:
SMILES,test,setting,how to read,endpoint,result
CC(C)=CC1OC(C)(C)C2C=C3C(=O)C(Cl)=CC(O)C3C3C(O)C4OC4C(=O)C132 (stereo not shown),"cell-free assay, competition with immobilised ligand",10 µM,,remaining binding,90%
COCC12C(=O)NC3C4(C(OC)CC1O)C1CC5(O)C(OC)C(O)C(OC(C)=O)(C1C5OC(=O)c1ccccc1)C3(O)C(OC)C24 (stereo not shown),"kinase activity, inhibitor, ProQinase kinase profiling",25 µM,relative to: control,remaining activity,92% and 103%
